Measured values from different studies.
Every numbered part comes from another study and shows a few of its results, in no order. Positions count from the first letter of the parent shown.
UniProt P08913, sequence (whole entry, looked up): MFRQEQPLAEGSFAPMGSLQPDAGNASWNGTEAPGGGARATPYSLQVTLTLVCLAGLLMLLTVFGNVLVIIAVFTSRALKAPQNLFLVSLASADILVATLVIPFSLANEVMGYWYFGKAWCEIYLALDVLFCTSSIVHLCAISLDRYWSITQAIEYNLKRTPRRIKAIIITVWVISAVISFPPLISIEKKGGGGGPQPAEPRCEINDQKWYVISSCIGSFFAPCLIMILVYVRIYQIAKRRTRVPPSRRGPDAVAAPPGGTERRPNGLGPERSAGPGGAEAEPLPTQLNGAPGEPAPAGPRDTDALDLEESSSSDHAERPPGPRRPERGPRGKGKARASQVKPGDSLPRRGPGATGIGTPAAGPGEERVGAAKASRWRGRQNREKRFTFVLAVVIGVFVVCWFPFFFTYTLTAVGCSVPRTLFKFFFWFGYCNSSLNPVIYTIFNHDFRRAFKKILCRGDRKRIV

Block 1 — target: CCNF, cyclin fold, Cln2 fusion (human); technique: yeast growth competition, sequencing; medium: yeast; setting: weak parent motif; relative to: not given; direction: higher = stronger binding
Starting sequence: E2F8 docking peptide (human); FVPQRKLEVSTED
Change	normalised enrichment score
FVPQKKLEFSTED [R5K V9F]	5.15
FVAQRKLEVSTED [P3A]	0.748
FVPQRALEVSTED [K6A]	-0.653
FVPARKLEVSTED [Q4A]	-0.397
FVPQRKLEVATED [S10A]	0.28
FVPQRKLAVSTED [E8A]	0.0937
FVPQAKLEVSTED [R5A]	-0.478
FVPQRKLEFSTED [V9F]	6.91

Block 2 — technique: aptamer microarray, sandwich; molecule type: DNA with 2'F-ANA; medium: in vitro; tested at: 200 nM; added: Cy3 exosite-II aptamer, 400 nM; direction: higher = stronger binding; oligonucleotide: GGTTGGTGTGGTTGG
Target: Prothrombin, mature alpha-thrombin (F2, Homo sapiens, UniProt P00734)
Setting: whole 15-mer aptamer, many near background
Modification	mean fluorescence intensity
2'F-ANA at 5 7 9 10 11	45.6 a.u.
2'F-ANA at 3 5 6 7 10 13 14	65 a.u.
2'F-ANA at 5 11 12 15	123 a.u.
2'F-ANA at 2 3 5 6 13 14 15	174 a.u.
2'F-ANA at 3 4 6 7 8 11 12 14 15	366 a.u.
2'F-ANA at 2 5 6 8 10 11 15	61 a.u.
2'F-ANA at 1 2 3 4 7 9 10 13	54.2 a.u.
2'F-ANA at 4 9 10 11 12 14 15	68.9 a.u.

Block 3 — technique: universal PBM; molecule type: double-stranded DNA, one strand shown; medium: in vitro; tested at: 600 nM; direction: higher = stronger binding
Target: Sal-like protein 4, full length isoform A (SALL4, Homo sapiens, UniProt Q9UJQ4, residues 1-1053)
UniProt Q9UJQ4, sequence (whole entry, looked up): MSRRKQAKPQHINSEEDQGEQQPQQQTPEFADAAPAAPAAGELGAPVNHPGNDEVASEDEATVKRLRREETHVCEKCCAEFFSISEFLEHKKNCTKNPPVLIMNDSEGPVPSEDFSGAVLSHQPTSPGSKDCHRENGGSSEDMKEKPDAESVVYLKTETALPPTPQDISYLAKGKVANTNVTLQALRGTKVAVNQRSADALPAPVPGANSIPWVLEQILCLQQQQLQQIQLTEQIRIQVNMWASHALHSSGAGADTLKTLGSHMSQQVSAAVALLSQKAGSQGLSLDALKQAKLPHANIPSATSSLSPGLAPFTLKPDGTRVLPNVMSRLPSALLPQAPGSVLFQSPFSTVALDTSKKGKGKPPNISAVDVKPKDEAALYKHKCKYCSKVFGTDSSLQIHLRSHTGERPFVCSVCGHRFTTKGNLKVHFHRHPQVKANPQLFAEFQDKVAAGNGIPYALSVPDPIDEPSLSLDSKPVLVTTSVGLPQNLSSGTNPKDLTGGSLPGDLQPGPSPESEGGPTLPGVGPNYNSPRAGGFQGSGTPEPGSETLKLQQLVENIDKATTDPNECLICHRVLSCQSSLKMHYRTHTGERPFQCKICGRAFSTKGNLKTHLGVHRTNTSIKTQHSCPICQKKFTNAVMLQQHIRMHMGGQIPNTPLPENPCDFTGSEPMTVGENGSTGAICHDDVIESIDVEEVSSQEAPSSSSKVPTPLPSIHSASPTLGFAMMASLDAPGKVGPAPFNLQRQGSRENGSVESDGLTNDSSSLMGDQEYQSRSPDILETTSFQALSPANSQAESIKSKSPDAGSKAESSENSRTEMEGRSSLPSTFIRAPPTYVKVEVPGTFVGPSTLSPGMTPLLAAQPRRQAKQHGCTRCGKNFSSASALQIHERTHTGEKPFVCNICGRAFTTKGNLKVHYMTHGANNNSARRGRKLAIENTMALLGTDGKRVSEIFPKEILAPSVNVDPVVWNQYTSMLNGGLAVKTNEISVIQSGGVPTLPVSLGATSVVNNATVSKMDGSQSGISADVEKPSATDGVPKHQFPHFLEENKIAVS
Setting: 8-mer, flanks averaged, mean of replicates
Oligonucleotide	E-score
CACTAGTG	-0.132
CGTCAATC	0.0486
ACTGGCCA	-0.154
CACTGCCG	-0.218
ATTTCGGG	0.103
CGCTTGAC	-0.172
AATTAGCT	0.164
GCAACCTA	-0.0209

Single results of other studies
SMILES	target	test	conditions	endpoint	value
CN1C(=O)[C@@H](N2CCc3c(nn(Cc4ccccc4)c3Br)C2=O)COc2ccccc21	Alpha-2A adrenergic receptor (ADRA2A, Homo sapiens, UniProt P08913)	cell-free assay	10 µM	inhibition	68%

Some of these lines once more (block 1):
Change	normalised enrichment score
FVAQRKLEVSTED [P3A]	0.748
FVPQRALEVSTED [K6A]	-0.653
